Measurements collected from several papers.
Each numbered part is a random draw from the data of one study; scales do not carry over between parts. “And” joins repeats or separate records; there may be more than shown.
UniProt P50613, sequence (whole entry, looked up): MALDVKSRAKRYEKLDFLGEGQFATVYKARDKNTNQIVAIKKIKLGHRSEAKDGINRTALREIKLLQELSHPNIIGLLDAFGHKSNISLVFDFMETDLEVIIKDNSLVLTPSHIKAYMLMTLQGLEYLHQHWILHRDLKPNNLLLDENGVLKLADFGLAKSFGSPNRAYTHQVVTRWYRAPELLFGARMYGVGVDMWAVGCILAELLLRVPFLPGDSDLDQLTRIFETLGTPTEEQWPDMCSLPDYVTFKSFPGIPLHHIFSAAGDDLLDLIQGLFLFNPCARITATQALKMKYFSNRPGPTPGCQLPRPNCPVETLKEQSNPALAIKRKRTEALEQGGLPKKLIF
UniProt Q8TDC3, sequence (whole entry, looked up): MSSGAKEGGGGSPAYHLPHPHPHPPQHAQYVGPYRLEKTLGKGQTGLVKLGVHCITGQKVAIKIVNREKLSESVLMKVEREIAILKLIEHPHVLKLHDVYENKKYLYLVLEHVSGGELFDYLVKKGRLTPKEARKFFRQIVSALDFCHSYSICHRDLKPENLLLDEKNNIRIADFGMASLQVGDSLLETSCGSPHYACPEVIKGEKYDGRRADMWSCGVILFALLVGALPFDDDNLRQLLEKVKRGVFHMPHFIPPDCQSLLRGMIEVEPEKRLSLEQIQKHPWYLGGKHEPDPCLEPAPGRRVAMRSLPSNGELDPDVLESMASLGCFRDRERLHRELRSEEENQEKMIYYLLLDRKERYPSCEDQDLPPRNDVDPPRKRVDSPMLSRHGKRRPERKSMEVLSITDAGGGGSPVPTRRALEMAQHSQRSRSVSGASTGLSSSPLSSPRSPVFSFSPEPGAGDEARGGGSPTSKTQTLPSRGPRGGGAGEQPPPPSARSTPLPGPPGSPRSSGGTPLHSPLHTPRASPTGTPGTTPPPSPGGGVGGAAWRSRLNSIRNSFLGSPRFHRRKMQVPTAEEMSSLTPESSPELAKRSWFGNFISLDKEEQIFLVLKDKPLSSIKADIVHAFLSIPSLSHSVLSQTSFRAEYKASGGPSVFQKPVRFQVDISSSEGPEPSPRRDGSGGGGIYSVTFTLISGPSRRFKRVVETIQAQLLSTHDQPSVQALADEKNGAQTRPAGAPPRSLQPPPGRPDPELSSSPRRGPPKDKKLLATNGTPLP
UniProt P08922, sequence (whole entry, looked up): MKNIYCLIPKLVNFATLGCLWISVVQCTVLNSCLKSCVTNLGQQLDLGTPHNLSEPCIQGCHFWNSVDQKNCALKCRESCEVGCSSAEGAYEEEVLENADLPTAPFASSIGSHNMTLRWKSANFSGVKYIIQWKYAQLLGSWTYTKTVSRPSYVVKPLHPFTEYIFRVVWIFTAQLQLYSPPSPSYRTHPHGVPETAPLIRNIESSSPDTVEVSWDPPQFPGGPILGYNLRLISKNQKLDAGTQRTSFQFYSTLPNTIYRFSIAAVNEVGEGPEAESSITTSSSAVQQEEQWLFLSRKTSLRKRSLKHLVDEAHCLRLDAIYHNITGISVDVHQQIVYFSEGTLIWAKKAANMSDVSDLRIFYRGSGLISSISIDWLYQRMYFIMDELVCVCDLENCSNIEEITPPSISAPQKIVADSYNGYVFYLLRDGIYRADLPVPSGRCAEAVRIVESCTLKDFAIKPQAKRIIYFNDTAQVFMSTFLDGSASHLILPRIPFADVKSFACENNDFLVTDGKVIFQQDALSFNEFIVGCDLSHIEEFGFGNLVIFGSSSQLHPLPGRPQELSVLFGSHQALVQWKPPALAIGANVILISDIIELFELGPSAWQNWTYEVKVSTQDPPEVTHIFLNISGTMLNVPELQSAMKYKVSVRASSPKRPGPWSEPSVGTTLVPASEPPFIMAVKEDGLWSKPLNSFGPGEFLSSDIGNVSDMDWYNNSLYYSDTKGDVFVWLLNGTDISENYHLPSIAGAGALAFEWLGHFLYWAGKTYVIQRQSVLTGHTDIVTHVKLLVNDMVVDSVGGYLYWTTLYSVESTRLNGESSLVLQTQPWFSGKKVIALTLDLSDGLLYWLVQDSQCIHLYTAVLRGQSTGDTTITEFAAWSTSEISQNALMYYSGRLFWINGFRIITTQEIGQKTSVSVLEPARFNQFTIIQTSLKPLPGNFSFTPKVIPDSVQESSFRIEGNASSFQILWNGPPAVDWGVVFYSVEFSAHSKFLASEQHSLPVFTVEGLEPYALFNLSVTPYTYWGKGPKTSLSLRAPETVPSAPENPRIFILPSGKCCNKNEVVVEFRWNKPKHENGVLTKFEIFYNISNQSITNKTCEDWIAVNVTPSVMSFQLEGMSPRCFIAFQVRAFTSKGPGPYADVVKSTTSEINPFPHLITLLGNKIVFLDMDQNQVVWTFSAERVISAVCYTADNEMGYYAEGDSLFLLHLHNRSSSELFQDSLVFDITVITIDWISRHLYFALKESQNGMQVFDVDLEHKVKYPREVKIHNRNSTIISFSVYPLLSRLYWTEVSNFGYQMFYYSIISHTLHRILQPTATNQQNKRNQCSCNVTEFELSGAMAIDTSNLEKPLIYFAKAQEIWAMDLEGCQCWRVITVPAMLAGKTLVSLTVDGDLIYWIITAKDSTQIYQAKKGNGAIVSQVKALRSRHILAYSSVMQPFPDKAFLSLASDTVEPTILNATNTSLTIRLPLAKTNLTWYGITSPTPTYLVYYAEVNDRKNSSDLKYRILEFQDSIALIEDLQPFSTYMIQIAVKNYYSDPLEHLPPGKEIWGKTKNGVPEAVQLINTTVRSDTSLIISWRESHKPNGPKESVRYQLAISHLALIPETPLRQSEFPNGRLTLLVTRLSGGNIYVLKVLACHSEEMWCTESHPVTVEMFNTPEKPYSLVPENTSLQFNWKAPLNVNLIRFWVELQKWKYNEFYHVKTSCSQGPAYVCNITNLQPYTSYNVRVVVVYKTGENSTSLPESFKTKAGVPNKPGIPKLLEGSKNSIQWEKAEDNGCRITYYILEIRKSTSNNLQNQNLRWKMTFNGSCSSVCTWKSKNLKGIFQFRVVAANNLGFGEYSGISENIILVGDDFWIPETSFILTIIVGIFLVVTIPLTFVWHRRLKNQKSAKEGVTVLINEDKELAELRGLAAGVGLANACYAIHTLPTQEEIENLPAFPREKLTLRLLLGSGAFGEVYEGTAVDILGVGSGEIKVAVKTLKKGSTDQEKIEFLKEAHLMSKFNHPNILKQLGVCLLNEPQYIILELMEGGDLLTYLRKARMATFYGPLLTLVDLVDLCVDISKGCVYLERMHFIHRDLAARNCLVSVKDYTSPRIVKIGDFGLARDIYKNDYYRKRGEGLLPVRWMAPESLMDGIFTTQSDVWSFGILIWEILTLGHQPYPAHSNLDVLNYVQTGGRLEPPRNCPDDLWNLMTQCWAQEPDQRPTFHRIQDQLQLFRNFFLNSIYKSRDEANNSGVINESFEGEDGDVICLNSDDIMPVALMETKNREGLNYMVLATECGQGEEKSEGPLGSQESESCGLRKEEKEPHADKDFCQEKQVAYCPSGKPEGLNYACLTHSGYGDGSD
UniProt P34947, sequence (whole entry, looked up): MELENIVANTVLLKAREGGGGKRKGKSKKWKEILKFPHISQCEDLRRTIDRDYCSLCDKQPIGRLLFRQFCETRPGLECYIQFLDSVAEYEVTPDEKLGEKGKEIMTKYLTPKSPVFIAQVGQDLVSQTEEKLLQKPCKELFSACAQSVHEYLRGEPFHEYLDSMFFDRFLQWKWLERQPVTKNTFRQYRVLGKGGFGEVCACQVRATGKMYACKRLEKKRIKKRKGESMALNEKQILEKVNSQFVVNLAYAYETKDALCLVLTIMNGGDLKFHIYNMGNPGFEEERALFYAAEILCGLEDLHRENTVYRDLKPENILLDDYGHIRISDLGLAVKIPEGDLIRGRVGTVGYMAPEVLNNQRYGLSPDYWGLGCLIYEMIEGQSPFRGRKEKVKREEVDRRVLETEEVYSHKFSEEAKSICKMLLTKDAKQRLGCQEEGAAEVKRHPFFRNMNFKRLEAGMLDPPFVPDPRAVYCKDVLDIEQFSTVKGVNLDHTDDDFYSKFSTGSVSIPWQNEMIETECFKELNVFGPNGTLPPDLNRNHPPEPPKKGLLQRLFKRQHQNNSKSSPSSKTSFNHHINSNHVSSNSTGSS
UniProt Q14289, sequence (whole entry, looked up): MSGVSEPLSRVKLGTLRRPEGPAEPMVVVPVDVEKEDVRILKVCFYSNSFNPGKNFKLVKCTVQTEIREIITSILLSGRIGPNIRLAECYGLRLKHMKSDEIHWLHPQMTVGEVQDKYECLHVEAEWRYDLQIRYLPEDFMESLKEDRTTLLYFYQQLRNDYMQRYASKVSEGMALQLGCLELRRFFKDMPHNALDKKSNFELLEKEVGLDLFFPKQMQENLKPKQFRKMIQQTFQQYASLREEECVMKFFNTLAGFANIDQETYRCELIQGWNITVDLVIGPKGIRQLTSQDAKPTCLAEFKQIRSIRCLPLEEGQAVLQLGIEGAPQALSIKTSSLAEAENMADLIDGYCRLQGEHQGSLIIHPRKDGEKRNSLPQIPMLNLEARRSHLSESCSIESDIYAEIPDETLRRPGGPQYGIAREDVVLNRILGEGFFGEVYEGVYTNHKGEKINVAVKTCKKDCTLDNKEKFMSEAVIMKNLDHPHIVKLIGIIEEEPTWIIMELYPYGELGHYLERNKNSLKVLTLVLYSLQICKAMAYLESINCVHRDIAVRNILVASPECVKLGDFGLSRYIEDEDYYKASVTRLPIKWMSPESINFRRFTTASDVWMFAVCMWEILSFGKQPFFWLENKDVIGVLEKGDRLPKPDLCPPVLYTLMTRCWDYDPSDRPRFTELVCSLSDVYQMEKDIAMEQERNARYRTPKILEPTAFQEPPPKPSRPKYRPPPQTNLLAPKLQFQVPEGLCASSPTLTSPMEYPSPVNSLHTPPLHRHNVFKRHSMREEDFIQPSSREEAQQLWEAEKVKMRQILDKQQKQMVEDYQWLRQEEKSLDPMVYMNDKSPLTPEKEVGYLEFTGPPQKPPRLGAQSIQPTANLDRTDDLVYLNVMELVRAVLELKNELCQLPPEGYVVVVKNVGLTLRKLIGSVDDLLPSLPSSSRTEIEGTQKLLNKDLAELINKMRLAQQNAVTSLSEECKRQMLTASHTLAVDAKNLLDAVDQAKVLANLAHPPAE

Study 1
Species: mouse
Medium: microsomes or S9
Tested at: 2 µM
Time: 0.5 h
Structure (SMILES)	remaining compound [%]
O=C1OCc2c(-c3ccccc3)sc(-c3ccccc3)c21	3.71
CC(O)CN(Cc1cc(F)cc(Br)c1)C(C)C (stereo not drawn)	1.23
O=C1CCc2cc(C(=O)N3CCc4sc(Br)cc4C3)c(F)cc2N1	25.7
Cc1ccc(-c2nc3scc(CCNS(=O)(=O)c4ccc(Br)cc4)n3n2)cc1	1.09
O=C1CC2(CCN(C(=O)CSC34CC5CC(CC(C5)C3)C4)CC2)CN1	0.48
Cc1ccccc1-c1nc2ccccc2cc1Cn1nc(N2CCC(O)CC2)c2c(N)ncnc21	30.8
Cc1cc(CC(C)n2ccnc2-c2ccc(C)o2)[nH]n1 (stereo not drawn)	8.97
COc1cc(=O)[nH]cc1C(=O)N1CCCC1c1cn(C)nc1C (stereo not drawn)	59.8
OCCCc1cn(-c2ccccc2)c2ccccc12	4.93
Cn1cnnc1-c1nn(C)c2c1CN(C(=O)c1n[nH]c3c1CCCCCC3)CC2	0.199
COc1cc(=O)n(C)cc1C(=O)N1CCc2c(cnc3cc(C)nn23)C1	68.4
O=C(NOCc1ccccc1)c1ccc2c(c1)NC(CCNS(=O)(=O)c1ccc(F)cc1)C(=O)N2 (stereo not drawn)	60.8
COC(=O)c1csc(COc2ccc(F)c(F)c2)n1	0.146
Oc1ccccc1-c1nc(-c2ccccc2O)n(-c2ccc(Br)cc2)n1	76.7

Study 2
SMILES: COc1ccc(-c2c(Nc3ccccn3)[nH]c3c(C4=CCCCC4)c(-c4ccccc4)nn3c2=O)cc1
Medium: plasma
measured	species	route	dose	time	setting	geometric mean plasma concentration [ng/mL]
methionine	human patients		100 mg once daily	2 h	cycle 100	81900
	human	oral	400 mg once daily	4 h	cycle 1	2830
methionine	human patients		400 mg once daily	4 h	cycle 400	78500
	human	oral	200 mg once daily	3 h	cycle 1	5080
S-adenosylmethionine	human patients	oral	400 mg once daily	6 h, cycle 1		18.4
S-adenosylmethionine	human patients	oral	400 mg once daily	8 h, cycle 1		18.5
	human	oral	100 mg once daily	2 h	cycle 1	3300
S-adenosylmethionine	human patients	oral	400 mg once daily	2 h, cycle 1		17.6

Study 3
SMILES: CC#CC(=O)Nc1cc2c(Nc3ccc(F)c(Cl)c3)ncnc2cn1
Observed: enzyme activity
Action: inhibitor
Tested at: 0.5 µM
Reference: control
target	remaining activity
PKN2 (Homo sapiens, UniProt Q16513)	95%
ROS1 (Homo sapiens, UniProt P08922)	91.3%
CAMK1G (Homo sapiens, UniProt Q96NX5)	99.2%
MAPK10 (Homo sapiens, UniProt P53779)	85.4%
BRSK1 (Homo sapiens, UniProt Q8TDC3)	102%
Cyclin-dependent kinase 2, with cyclin A (CDK2, Homo sapiens, UniProt P24941)	97.8%
PRKD1 (Homo sapiens, UniProt Q15139)	98.7%
CSNK2A2 (Homo sapiens, UniProt P19784)	96.5%
NTRK3 (Homo sapiens, UniProt Q16288)	95.3%
MAP3K8 (Homo sapiens, UniProt P41279)	94.2%
HIPK3 (Homo sapiens, UniProt Q9H422)	92.9%
Aurora kinase A (AURKA, Homo sapiens, UniProt O14965)	96.5%
RET (Homo sapiens, UniProt P07949)	84.3%
MAP3K2 (Homo sapiens, UniProt Q9Y2U5)	107%
GRK5 (Homo sapiens, UniProt P34947)	105%
DMPK (Homo sapiens, UniProt Q09013)	104%
CDK7 (Homo sapiens, UniProt P50613)	101%
PTK2B (Homo sapiens, UniProt Q14289)	94.1%
SLK (Homo sapiens, UniProt Q9H2G2)	93.6%
DYRK4 (Homo sapiens, UniProt Q9NR20)	98%
NEK9 (Homo sapiens, UniProt Q8TD19)	104%
CAMK1D (Homo sapiens, UniProt Q8IU85)	107%

Study 4
SMILES: CC(C)(C(=O)O)[C@H](NC(=O)Cc1cccc(I)c1)c1ccc2oc(=O)[nH]c2c1
Method: Incucyte 3D growth
Tested at: 30 µM
Direction: higher = more growth
cell line	time	spheroid area
NCI-H1437	204 h	3.35e+07 a.u. and 8.05e+07 a.u. and 4.73e+07 a.u. and 6.9e+07 a.u. and 8.06e+07 a.u. and 5.1e+07 a.u.
KP-4	276 h	1e+08 a.u. and 7e+07 a.u. and 4.88e+07 a.u. and 2.71e+07 a.u. and 6.76e+07 a.u. and 9.43e+07 a.u.
KP-4	60 h	1.51e+07 a.u. and 1.27e+07 a.u. and 1.45e+07 a.u. and 1.35e+07 a.u. and 1.65e+07 a.u. and 1.55e+07 a.u.
MEL-JUSO	474.52 h	2.18e+07 a.u. and 2.52e+07 a.u. and 3.6e+07 a.u. and 2.33e+07 a.u. and 5.4e+07 a.u. and 7.51e+07 a.u.
IPC-298	174 h	2.74e+07 a.u. and 3.41e+07 a.u. and 2.13e+07 a.u. and 2.73e+07 a.u. and 2.64e+07 a.u. and 3e+07 a.u.
NCI-H358	12 h	3.36e+06 a.u. and 3.23e+06 a.u. and 3.04e+06 a.u. and 3.44e+06 a.u. and 3.63e+06 a.u. and 3.05e+06 a.u.

Single results of other studies
Compound	cell line	method	tested at	time	measurement	value
Cn1cncc1[C@@](O)(COc1ccc(C#N)cc1-c1ccc(OC(F)(F)F)cc1)c1ccc(C#N)cc1	HEK293T	high-content imaging	10 µM	0 h	cells with altered mitochondria	36.3% and 28.1%
